# Assay results of several laboratories.
# Compare with care: the assays were run in different laboratories. ± gives the spread as reported.
# Chain of UniProt Q12879 (whole entry, looked up): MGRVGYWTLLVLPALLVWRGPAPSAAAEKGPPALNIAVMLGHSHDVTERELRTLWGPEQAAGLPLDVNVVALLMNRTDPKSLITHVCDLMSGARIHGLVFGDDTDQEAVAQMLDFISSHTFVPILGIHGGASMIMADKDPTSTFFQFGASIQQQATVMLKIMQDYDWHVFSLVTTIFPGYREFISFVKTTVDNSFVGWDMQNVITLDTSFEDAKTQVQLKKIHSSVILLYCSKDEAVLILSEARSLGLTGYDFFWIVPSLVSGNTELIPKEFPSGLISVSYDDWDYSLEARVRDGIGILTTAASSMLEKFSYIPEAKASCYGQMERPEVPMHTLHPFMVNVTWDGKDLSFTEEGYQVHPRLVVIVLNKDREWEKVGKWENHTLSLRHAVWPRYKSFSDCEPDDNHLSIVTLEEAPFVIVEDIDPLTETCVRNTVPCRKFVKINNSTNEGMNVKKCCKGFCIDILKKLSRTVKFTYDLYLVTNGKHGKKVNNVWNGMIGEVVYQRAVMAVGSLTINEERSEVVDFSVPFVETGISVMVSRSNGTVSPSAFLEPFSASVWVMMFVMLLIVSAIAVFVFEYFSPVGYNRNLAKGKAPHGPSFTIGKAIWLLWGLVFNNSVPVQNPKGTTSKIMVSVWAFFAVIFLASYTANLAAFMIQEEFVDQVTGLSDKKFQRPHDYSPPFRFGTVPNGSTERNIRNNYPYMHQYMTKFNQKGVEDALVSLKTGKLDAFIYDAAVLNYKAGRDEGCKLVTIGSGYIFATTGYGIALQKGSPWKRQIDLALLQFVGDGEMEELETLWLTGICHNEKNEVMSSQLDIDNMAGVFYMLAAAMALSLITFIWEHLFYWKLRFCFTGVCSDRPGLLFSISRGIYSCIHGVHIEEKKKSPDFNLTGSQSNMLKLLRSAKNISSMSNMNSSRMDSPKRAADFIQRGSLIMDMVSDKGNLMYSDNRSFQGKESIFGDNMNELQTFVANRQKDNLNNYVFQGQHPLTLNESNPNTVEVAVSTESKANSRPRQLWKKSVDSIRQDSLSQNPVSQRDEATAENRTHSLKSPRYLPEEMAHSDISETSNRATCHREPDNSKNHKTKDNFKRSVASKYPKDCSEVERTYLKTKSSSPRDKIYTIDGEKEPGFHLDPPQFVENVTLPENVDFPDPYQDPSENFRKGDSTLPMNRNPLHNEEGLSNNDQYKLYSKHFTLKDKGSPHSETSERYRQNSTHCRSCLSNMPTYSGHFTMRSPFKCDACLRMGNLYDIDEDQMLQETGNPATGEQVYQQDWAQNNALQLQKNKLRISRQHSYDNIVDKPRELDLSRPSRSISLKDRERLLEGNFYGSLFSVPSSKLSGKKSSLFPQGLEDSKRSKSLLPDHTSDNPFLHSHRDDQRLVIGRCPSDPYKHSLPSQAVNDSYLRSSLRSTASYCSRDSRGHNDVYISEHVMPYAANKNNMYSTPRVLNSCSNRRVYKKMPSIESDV
Molecule,target or system,test,system,setting,scale,endpoint,result
D-AP5,"Glutamate NMDA receptor; GRIN1/GRIN2A (Homo sapiens, UniProt Q05586+Q12879)","ion current, antagonist, whole-cell patch clamp",HEK-293T expressing Glutamate NMDA receptor; GRIN1/GRIN2A,concentration not given,,inhibition,98.1 ± 0.02%
maraviroc,,,"human, Black, CYP3A5 poor metabolizers, plasma",300 mg twice daily,,Cmax,864 ng/mL
ε-poly-L-lysine,,,Tris-Cl buffer,"pH 7.5, room temperature",,thermodynamic solubility,327 ± 81.3 mg/mL
semaglutide,,refers to: drug relationship missing,"human, safety analysis set","concentration not given, 32 weeks, run-in",,participants with adverse events,3.1%
chicoric acid,,UPLC,"broiler chicken, plasma","oral gavage, 20 mg/kg",,Cmax,73.4 ± 39.3 ng/mL
(+)-catechin gallate,,"transwell, HBSS","apical compartment, no cells","4 h, pH 7.4",,mass recovered,not detected
sorafenib glucuronide,,,Abcc3(−/−) mouse,"oral, 10 mg/kg of sorafenib",baseline: wild type,liver-to-plasma ratio,increased
deucravacitinib,,,human,"concentration not given, multiple dose, all doses",,fatigue incidence,2.2%
vorinostat glucuronide,,,"patients, plasma","oral, 100 mg vorinostat three times daily, 14 days, added: idarubicin",,Cmax,2160 nM

# Some of these lines once more:
Molecule,target or system,test,system,setting,scale,endpoint,result
(+)-catechin gallate,,"transwell, HBSS","apical compartment, no cells","4 h, pH 7.4",,mass recovered,not detected
